Measured values of several laboratories.
Protocols differ between the studies behind these lines. “And” joins repeats or separate records; there may be more than shown. Numbers after ± are the reported error.

SMILES	tested on	test	system	setting	scale	endpoint	value
O=C(N/N=C/c1cc[n+](Cc2ccccc2)c2ccccc12)c1ccc2ccc(C(=O)N/N=C/c3cc[n+](Cc4ccccc4)c4ccccc34)nc2n1	22CTA telomeric G4-DNA antiparallel	FRET melting	–	1 µM, K10 buffer, DNA 0.2 µM	–	ΔTm	17.3 ± 0.5 °C
CN1CCCNC(=O)c2cccc(c2)C(=O)NCCCN(C)CCCNc2cccc3c2C(=O)c2cccc(c2C3=O)NCCC1	SAS	RNA-Seq, measured: RABEP2 mRNA	–	1 µM, 6 h	relative to: untreated cells	log2 fold change	-1.45
CC12CCCC(n3cc(C(=O)N4CCOCC4)nn3)(C1)C1CC(C)(C)C1CC2 (stereo not drawn)	HT-29	cell growth or viability, CCK-8	–	50 µM	–	inhibition	55%
CNC(=O)c1ccc([C@H]2[C@@H](F)[C@@H](F)C[C@@H](F)[C@H]2F)cc1	–	liver microsome stability	mouse liver microsomes	1 µM	–	hepatic clearance	33 mL/min/kg
CCN(CC)CC(=O)Nc1cccc(-n2cc(-c3ccc4ccc(-c5cn(-c6cccc(NC(=O)CN(CC)CC)c6)nn5)cc4c3)nn2)c1	RCC4	PCR array, measured: CTGF	–	5 x IC50, 2 h, normoxia	relative to: untreated	fold regulation	1.03
CCNc1ncc2c(/C=C/C(=O)N3CCC(OC)CC3)nn(Cc3cccc(C(F)(F)F)c3)c2n1	FLO-1	cell growth or viability, resazurin	–	5 days	–	EC50	1650 nM
CC12CCCC(NS(=O)(=O)c3ccc(C(F)(F)F)cc3)(C1)C1CC(C)(C)C1CC2 (stereo not drawn)	HT-29	cell growth or viability, CCK-8	–	50 µM	–	inhibition	70.7%
CCC(=CCc1c(O)cc2c(c1O)C(=O)CC(c1c(O)cccc1OC)O2)CC (stereo not drawn)	HeLa	cell growth or viability, MTT	–	12.5 µM, 48 h	–	inhibition	15.8%
CNS(=O)(=O)Nc1nccc(Cc2c(C)c3ccc(Oc4ncccc4F)cc3oc2=O)c1F	LoVo	cell viability	–	7 days	–	IC50	83.6 nM
O=S(=O)(N[C@H]1CCO[C@@H](C2c3ccc(F)cc3CCc3cc(F)ccc32)C1)c1ccc(OC(F)(F)F)cc1	D425	immunoblot, measured: Bad	–	concentration not given, 24 h	–	phosphorylation level	decreased
CN(C)c1cccc(-c2ccc([C@H]3[C@@H](F)[C@@H](F)C[C@@H](F)[C@H]3F)cc2)c1	–	hepatocyte stability	cryopreserved mouse hepatocytes	1 µM	–	hepatic clearance	65 mL/min/kg
CCN(C(=O)c1cc(F)ccc1Oc1nncnc1N1CCC2(C1)CN([C@H](CCCN(C)CCOC)C(C)C)C2)C(C)C	CLS-439	cell growth	–	168 h	–	GI50	> 10000 nM
COc1ccc(CNC[C@@](O)(COCc2ccc(F)cc2)[C@@H]2CC[C@@H](C)C[C@H]2OCc2ccc(F)cc2)cc1	A2780	cell growth or viability, MTT	–	30 µM, 72 h	–	inhibition	95.8%
O=C(C[Se]C(=O)c1ccccc1Nc1cccc(C(F)(F)F)c1)Nc1cccc(C(F)(F)F)c1	NCI60 leukemia subpanel	cell growth	–	10 µM, 48 h, one-dose	–	mean growth percent	-75.5%
CCC(=CCc1c(O)cc2c(c1O)C(=O)CC(c1ccc(OC)cc1O)O2)CC (stereo not drawn)	HeLa	cell growth or viability, MTT	–	3.125 µM, 48 h	–	inhibition	7.3%
CCCC[C@H](NC(=O)COCCOCCNC(=O)CN1CCN(CC(=O)O)CCN(CC(=O)O)CC1)C(=O)N[C@H]1CC(=O)NCCCC[C@@H](C(N)=O)NC(=O)[C@H](Cc2c[nH]c3ccccc23)NC(=O)[C@H](CCCNC(=N)N)NC(=O)[C@@H](Cc2ccccc2)NC(=O)[C@H](Cc2c[nH]cn2)NC1=O [technetium-99m labelled]	–	–	C57 mouse, skin	intravenous, 0.037 MBq, 2 h	–	tissue uptake	0.47 ± 0.17 %ID/g
[BH3-][P+]1(c2ccccc2)CCCCC1	HaCaT	ELISA	–	IC50, 72 h	–	IL-6 level	12.9 ± 0.84 pg/mL
Cc1cc(Cl)cc(-c2ccnc3cc(CN4C(=O)C5C(C4=O)C5(C)C)sc23)c1C[C@@H]1CNCCO1 (stereo partly drawn)	CHP-212 resistant cells (pooled)	PI flow cytometry	–	1 µM, 24 h	–	cells in G1 phase	74.4% and 76% and 77.2%
C[n+]1cc(/C=N/NC(=O)N/N=C/c2cc3ccccc3[n+](C)c2)cc2ccccc21	22CTA telomeric G4-DNA antiparallel	FRET melting	–	1 µM, K10 buffer, DNA 0.2 µM, with: ds26 10 µM	–	ΔTm	5.9 ± 1.6 °C
Cc1ncsc1-c1ccc(C(C)NC(=O)C2CC(O)CN2C(=O)C(NC(=O)CCCCCCCCCCN2CCCC(Nc3ncc(Cl)c(Nc4ccccc4S(=O)(=O)C(C)C)n3)C2)C(C)(C)C)cc1 (stereo not drawn)	22Rv1	RNA-seq, measured: SLC25A21-AS1	–	concentration not given	relative to: DMSO	log2 fold change	-1.32
CC(=O)N[C@H](C(=O)N[C@@H](CCC(=O)O)C(=O)N[C@@H](C)C(=O)N[C@@H](CC(=O)O)C(=O)COC(=O)c1c(C)cccc1C)C(C)C	THP-1 cells, LPS-primed	pyroptosis, LDH release	–	25 µM, LPS 1 µg/mL, 4 h, with: nigericin 5 µM, 2 h	–	cell lysis	85.3%

Excerpt of the above:
SMILES	tested on	test	system	setting	scale	endpoint	value
C[n+]1cc(/C=N/NC(=O)N/N=C/c2cc3ccccc3[n+](C)c2)cc2ccccc21	22CTA telomeric G4-DNA antiparallel	FRET melting	–	1 µM, K10 buffer, DNA 0.2 µM, with: ds26 10 µM	–	ΔTm	5.9 ± 1.6 °C
